{"data": "Measurements gathered from unrelated publications", "note": "Lines come from different studies, so protocols differ. Numbers after ± are the reported error."}
{"Structure (SMILES)": "CCOc1ccc(NC(=S)N(CCO)Cc2cc3cc(C)cc(C)c3[nH]c2=O)cc1", "test system": "C57BL/6J mouse, plasma", "conditions": "intravenous, 3 mg/kg, with: ABT 50 mg/kg oral pretreatment 2 h before", "Cmax": "5630 ng/mL"}
{"Structure (SMILES)": "CC[C@H](C)[C@@H]1NC(=O)[C@H](Cc2ccc(O)cc2)NC(=O)[C@@H](N)CSSC[C@@H](C(=O)N2CCC[C@H]2C(=O)N[C@@H](CC(C)C)C(=O)NCC(N)=O)NC(=O)[C@H](CC(N)=O)NC(=O)[C@H](CCC(N)=O)NC1=O", "test": "microdialysis, radioimmunoassay", "test system": "knock-out male mice lacking compound, amygdala extracellular fluid", "conditions": "intraperitoneal, 12 µg total", "Cmax": "2.31 pg/sample"}
{"Structure (SMILES)": "COc1ccc(/N=C(\\N)CC(O)c2cc3c(F)cc(F)cc3c3cc(C(F)(F)F)ccc23)cc1.Cl (stereo not shown)", "test system": "mouse, dried blood spot", "conditions": "oral, 3 mg/kg single dose", "Cmax": "3.7 ng/mL"}
{"Structure (SMILES)": "COc1cc(CCC(C)=O)ccc1O", "test system": "male C57BL/6J mice low-fat diet, plasma", "conditions": "oral, 200 mg/kg, after enzymatic deconjugation", "Cmax": "25000 ± 2900 nM"}
{"Structure (SMILES)": "O=c1c(O)c(-c2ccc(O)cc2)oc2cc(OS(=O)(=O)O)cc(O)c12", "test system": "FVB mice, male, Bcrp1^−/−, plasma", "conditions": "oral, 10 mg/kg of kaempferol", "Cmax": "1090 ± 210 nM"}
{"Structure (SMILES)": "COc1cccc2c1C(=O)c1c(O)c3c(c(O)c1C2=O)C[C@@](O)(C(=O)CO)C[C@@H]3O[C@H]1C[C@H](N)[C@H](O)[C@H](C)O1", "test system": "mouse, E0771 tumour-bearing, kidney", "conditions": "intravenous, 92 µmol/kg", "Cmax": "339000 nM"}
{"Structure (SMILES)": "Cc1cc(Nc2cc3ncccc3c(N[C@@H]3C[C@H]4CC[C@@H](C3)N4CCC#N)n2)n[nH]1", "test system": "beagle dog, female, plasma", "conditions": "oral, 30 mg/kg/day, last day of 39 weeks", "Cmax": "81.7 ng/mL"}
{"Structure (SMILES)": "CC(=O)N[C@@H](Cc1ccccc1)C(=O)N[C@H]1CCCNC(=O)[C@H](CCCNC(=N)N)NC(=O)[C@H](Cc2c[nH]c3ccccc23)NC(=O)[C@@H](CC2CCCCC2)NC(=O)[C@@H]2CCCN2C1=O", "test system": "C57BL/6J mouse, plasma", "conditions": "subcutaneous, 1 mg/kg, single dose", "Cmax": "3770 ng/mL"}
{"Structure (SMILES)": "OCCc1ccc(O)c(O)c1", "test system": "male C57BL/6J mice low-fat diet, plasma", "conditions": "oral, 200 mg/kg, after enzymatic deconjugation", "Cmax": "55 ± 13 nM"}
{"Structure (SMILES)": "Cc1nc2cccc(OCC(C)(C)C(=O)NC(C)C)c2c(N)c1C(=O)O", "test system": "Sprague-Dawley rat, male, plasma", "conditions": "oral, 10 mg/kg, day 7", "Cmax": "16.2 ± 3.6 ng/mL"}
{"Structure (SMILES)": "CCCC[C@H](NC(C)=O)C(=O)N[C@H]1CCC(=O)NC[C@@H](C(=O)N[C@@H](Cc2c[nH]c3ccccc23)C(N)=O)NC(=O)[C@H](CCCNC(=N)N)NC(=O)[C@@H](Cc2ccccc2)NC(=O)[C@H](Cc2c[nH]cn2)NC1=O", "test system": "CD Sprague-Dawley rat, female, plasma", "conditions": "subcutaneous, 5.0 mg/kg/day, day 1", "Cmax": "1080 ng/mL"}
{"Structure (SMILES)": "CC(=O)C=Cc1ccc(O)c(O)c1", "test system": "male C57BL/6J mice low-fat diet, plasma", "conditions": "oral, 200 mg/kg, diet 8 weeks", "Cmax": "990 ± 120 nM"}
{"Structure (SMILES)": "COc1cccc(-c2n[nH]c(SCc3ccccn3)n2)c1OC", "test system": "Sprague-Dawley rat, both sexes, plasma", "conditions": "oral, diet, 30 mg/kg/day, day 90", "Cmax": "3160 ng/mL"}
